# Measured values of several laboratories.
# Each numbered part is a random draw from the data of one study; scales do not carry over between parts. Substitutions count along the parent as printed.

# Set 1
# Target: Histone acetyltransferase KAT6A, winged helix 2, GST fusion (KAT6A, Homo sapiens, UniProt Q92794, residues 85-181)
# Method: protein binding microarray
# Molecule type: double-stranded DNA, one strand shown
# Matrix: in vitro
# Tested at: not given
# Notes: 8-mer, flanks averaged, mean of 2 arrays, mostly near background
# Reference: not given
# Direction: higher = stronger binding
# Construct (chain): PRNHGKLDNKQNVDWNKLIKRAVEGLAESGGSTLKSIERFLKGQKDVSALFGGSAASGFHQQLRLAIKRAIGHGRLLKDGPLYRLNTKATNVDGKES
Oligonucleotide,E-score
CCCGGATC,0.191
CTGGTCGA,-0.00604
GCGGCGAA,0.268
AAATATGT,-0.0837
CGACCACA,-0.0361
ATGCGGGA,0.144
GTACACAC,0.0576
ATGACCCG,-0.111
AGACGCTA,0.00279
TACGGCGA,0.136
AATTACGG,-0.0511
ATATGTAC,-0.166

# Set 2
# Target: Sal-like protein 4, full length isoform B (SALL4, Homo sapiens, UniProt Q9UJQ4-2, residues 1-616)
# Method: universal PBM
# Molecule type: double-stranded DNA, one strand shown
# Matrix: in vitro
# Tested at: not given
# Notes: 8-mer, flanks averaged, mean of replicates
# Direction: higher = stronger binding
Oligonucleotide,E-score
GATTCCTA,0.0162
AAGGCGCA,-0.153
AACATAGA,0.0754
CGGGAACG,-0.277
GAGCTGCA,-0.195
GATTAGAC,0.0692
AATCTACT,0.129
ATATGGCC,0.00689
AAAATGTA,0.306
AATGCACA,0.156
CGAAAGAG,-0.0185
CACTCCCC,-0.216
AGTAACAA,0.174
GATATTGC,0.205

# Set 3
# Target: CCNB1, cyclin fold, Cln2 fusion (human)
# Method: yeast growth competition, sequencing
# Matrix: yeast
# Notes: strong parent motif
# Reference: not given
# Direction: higher = stronger binding
# Starting sequence: PKN2 docking peptide (human); VSAVQKLDFSDTM; partner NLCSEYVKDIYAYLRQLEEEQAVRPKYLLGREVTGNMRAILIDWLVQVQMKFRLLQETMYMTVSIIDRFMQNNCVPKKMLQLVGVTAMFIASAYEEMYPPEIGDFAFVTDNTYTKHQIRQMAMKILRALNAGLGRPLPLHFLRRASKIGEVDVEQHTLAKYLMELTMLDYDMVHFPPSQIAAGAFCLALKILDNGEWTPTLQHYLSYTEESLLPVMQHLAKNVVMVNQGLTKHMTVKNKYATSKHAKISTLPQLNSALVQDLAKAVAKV
Variant,normalised enrichment score
VSAVQKLDFSFTM [D11F],0.83
ISAVQKLDFSDTM [V1I],1.93
VSAVQKLDQSDTM [F9Q],0.223
VSAVQKLDMSDTM [F9M],-0.0753
VSAVQKLDFSDDM [T12D],2.5
VSAVQKLDFSTTM [D11T],1.49

# Mixed results
Substance,target,test,test system,conditions,scale,quantity,result
"PhoQ, residues 284 288 289 292 302 303 TNSAEL","PhoP, residues 12 14 15 18 19 NYFTV (Escherichia coli, UniProt P23836)","Sort-seq, measured: YFP reporter",E. coli,"PhoQ-PhoP variant library, with: 10 µM Mg2+","reference: high Mg2+ state, higher = stronger signaling",fold induction,2.21
